Assay results gathered from unrelated publications.
Every numbered part comes from another study and shows a few of its results, in no order.
UniProt Q99558, sequence (whole entry, looked up): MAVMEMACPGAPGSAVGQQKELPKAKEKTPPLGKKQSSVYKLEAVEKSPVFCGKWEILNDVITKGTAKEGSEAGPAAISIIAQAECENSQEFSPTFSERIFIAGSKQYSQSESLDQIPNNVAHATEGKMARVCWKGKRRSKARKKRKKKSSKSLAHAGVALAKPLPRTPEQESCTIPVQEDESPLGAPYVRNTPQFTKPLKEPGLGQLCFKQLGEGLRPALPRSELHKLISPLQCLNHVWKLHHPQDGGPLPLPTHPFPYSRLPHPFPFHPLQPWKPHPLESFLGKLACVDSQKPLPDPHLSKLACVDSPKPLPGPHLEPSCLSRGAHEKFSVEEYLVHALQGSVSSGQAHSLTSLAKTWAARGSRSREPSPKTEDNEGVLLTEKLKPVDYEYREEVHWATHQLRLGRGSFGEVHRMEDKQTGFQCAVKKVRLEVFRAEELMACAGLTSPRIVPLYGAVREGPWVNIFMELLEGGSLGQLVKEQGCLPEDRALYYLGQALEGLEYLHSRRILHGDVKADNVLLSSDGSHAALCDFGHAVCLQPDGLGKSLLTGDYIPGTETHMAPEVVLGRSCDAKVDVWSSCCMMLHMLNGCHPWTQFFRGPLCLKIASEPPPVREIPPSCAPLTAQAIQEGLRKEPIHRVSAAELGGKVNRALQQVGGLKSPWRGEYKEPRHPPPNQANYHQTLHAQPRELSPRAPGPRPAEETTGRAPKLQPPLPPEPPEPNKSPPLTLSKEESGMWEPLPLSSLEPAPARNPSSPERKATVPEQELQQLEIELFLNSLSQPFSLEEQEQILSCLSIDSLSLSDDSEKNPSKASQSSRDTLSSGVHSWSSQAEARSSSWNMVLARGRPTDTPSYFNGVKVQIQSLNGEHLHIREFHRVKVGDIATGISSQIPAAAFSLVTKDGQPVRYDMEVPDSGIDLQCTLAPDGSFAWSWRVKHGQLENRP

Block 1
Target: Centromere-binding protein 1, full length, His-tagged (CBF1, Saccharomyces cerevisiae, UniProt P17106, residues 1-351)
UniProt P17106, sequence (whole entry, looked up): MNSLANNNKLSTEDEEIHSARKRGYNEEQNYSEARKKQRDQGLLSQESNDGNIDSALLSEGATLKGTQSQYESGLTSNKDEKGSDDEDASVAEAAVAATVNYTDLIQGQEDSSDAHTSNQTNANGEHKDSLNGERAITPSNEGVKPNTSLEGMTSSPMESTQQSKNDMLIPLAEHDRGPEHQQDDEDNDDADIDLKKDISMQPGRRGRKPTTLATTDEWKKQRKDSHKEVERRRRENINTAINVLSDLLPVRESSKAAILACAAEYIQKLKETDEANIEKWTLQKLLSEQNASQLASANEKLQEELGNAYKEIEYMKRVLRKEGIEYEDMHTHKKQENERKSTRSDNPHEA
Technique: competition protein-binding microarray
Molecule type: double-stranded DNA, one strand shown
Matrix: in vitro
Concentration: 2 µM
Notes: whole 60-bp probe, lowest competitor level
Added: Pho4 competitor, 0.05 µM
Direction: higher = stronger binding
Sequence	fluorescence intensity [a.u.]
TGCGCAACAACTTGTCACGTTACTTTATGTCTAGAAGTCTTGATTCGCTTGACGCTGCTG	1190
CGGGGTTAAGTTTGATGTGTGGGTGGCTTGCAGCAGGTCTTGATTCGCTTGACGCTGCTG	61.6
TGAATGACTTGTTGGAACGTGGTGAAATTTCTTTGGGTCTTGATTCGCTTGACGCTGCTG	91.1
AAATCCGTCCTGAAACCCGTGCTAAAATCCGTTTACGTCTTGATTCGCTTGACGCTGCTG	135
AAATTACTAAGTTGTCACCTGACTTACCCCGTATGAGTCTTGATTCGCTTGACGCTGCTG	2460
GCCATCCAAAACTTGCCCGTGGTGAACTCATTCGGAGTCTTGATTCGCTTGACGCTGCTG	81.9
GTCTTGTCTCATTGCCGTGTGGGTGTCCCCACTTCAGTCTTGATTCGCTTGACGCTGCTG	82.3
AGGAACGCTTAAAACATCGTGGAGTGAGTGTGGTAAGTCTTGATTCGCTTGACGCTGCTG	68.5

Block 2
Target: Ras GTPase-activating protein-binding protein 1, RRM domain (G3BP1, Homo sapiens, UniProt Q13283)
UniProt Q13283, sequence (whole entry, looked up): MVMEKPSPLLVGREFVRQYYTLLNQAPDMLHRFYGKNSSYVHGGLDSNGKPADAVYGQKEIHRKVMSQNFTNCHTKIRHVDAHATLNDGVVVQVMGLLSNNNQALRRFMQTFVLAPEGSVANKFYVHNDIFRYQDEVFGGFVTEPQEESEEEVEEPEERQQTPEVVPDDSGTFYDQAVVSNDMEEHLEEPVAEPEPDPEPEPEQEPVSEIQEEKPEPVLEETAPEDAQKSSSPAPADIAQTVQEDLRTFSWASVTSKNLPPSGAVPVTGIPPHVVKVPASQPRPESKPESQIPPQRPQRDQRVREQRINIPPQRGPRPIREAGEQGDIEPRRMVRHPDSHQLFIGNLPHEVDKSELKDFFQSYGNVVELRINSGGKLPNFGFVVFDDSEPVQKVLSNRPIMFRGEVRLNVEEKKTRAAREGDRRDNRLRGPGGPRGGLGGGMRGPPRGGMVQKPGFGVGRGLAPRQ
Technique: RNA Bind-n-Seq
Molecule type: RNA
Matrix: in vitro
Concentration: 1 µM
Notes: whole 134-nt RNA, ends assumed
Added: 150 mM KCl
Baseline: input library
Direction: higher = stronger binding
Sequence	log2 enrichment
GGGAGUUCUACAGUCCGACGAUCGUCCUGUGCUACACAUCGUAUGUACCGAAUCAAAUUUUUAAAUUUUUUUAAACCCAAAAAAGUAUUAUGUUACGCCGUUCGGAUCUGCACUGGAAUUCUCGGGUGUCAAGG	-1.52
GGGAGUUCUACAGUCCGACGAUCUCCUCAAGUCCUGUGCUACACAUCGUAUGUACCGAAUCGGCGGGCGGGCGGGAAAGUAUUAUGUUACGCCGUUCGGAUCUGCACUUCCAGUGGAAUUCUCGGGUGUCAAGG	0.101
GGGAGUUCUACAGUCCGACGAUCUGUCCCUGGUGGCAUGCGGGGAGGAAGAGGUGGCCUCAUGGAUCGUGGUGGUCCCGGUGGAAUGUUCAGAGGUGGCCGUGGUGGAGACAGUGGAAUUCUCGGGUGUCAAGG	0.526
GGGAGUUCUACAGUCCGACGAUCCUCAAGUCCUGUGCUACACAUCGUAUGUACCGAAUCGGUUUGGUUUGGAAAGGAAAGUAUUAUGUUACGCCGUUCGGAUCUGCACUUCCAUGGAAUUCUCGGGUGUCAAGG	-0.189
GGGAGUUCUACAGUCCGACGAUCUGGGAGGUGGAUUUUGUUUAUUUUUUUAGCUCAUUUCCAGGGGUGGGAAUUGUUUUUUAAUAUGUGUCAUGAAUAAAGUUGUUUUUGAAAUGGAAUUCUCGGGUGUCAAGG	2.19
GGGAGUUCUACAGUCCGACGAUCUUUCCAAGAAGUGCACUGAAAAUGACAUCCGAGUCAUGUUCUCUUCGUUUGGACAGAUUGAAGAAUGCCGGAUAUUGCGGGGACCUGAUGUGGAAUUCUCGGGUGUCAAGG	-0.155
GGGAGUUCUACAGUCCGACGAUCUCAACAAGAGAUGUUCAAGAACUUUUGACACAAUAUACCAAGUUUGCACAGAUGGUAAAAAAGAUGGGAGGUAUCAAAGGACUUUUCAAAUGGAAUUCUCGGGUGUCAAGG	-0.0644
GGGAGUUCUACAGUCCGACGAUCGCAGGAAGUAAAAACAAAUGGAAAUGCUUCGGAUCGUGGCAGGGGUGGGGGUUGCUAAGGAAAGGGUGGGAUGGGAGUGGGUAAAGAGUUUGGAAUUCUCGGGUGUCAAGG	1.71

Other studies, line by line
SMILES	target or system	assay	system	conditions	endpoint	value
CCC[C@@H]1NC(=O)CSC[C@@H](C(=O)OCC)N(C)C(=O)[C@H](CC(C)C)NC(=O)[C@@H](C)N(C)C(=O)[C@@H](CC(C)C)NC(=O)[C@H](C)N(C)C(=O)[C@@H]2CCCN2C(=O)[C@@H](CC(C)C)NC(=O)CN(CCC)C1=O			hydrocarbon/water		logD	1.32
COc1ccc2cc(OCC3(C(=O)O)CN(C(=O)c4ccc(F)cc4)C3)ccc2c1	Mitogen-activated protein kinase kinase kinase 14 (MAP3K14, Homo sapiens, UniProt Q99558)	cell-free assay, competition with immobilised ligand		1 µM	remaining binding	82%
CCOC(=O)[C@@H]1CSCC(=O)N[C@@H](CC)C(=O)N(C)[C@@H](C)C(=O)N[C@@H](CC(C)C)C(=O)N2CCC[C@H]2C(=O)N(CC)CC(=O)N[C@@H](CC(C)C)C(=O)N(C)[C@H](C)C(=O)N[C@@H](CC(C)C)C(=O)N1C			hydrocarbon/water		logD	-0.652

For quick reference, copied from above (block 1):
Sequence	fluorescence intensity [a.u.]
GCCATCCAAAACTTGCCCGTGGTGAACTCATTCGGAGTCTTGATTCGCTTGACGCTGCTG	81.9
GTCTTGTCTCATTGCCGTGTGGGTGTCCCCACTTCAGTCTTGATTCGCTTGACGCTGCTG	82.3
